Assay results pooled from the literature.
A part holds a random share of what one study measured.

Set 1
Target: Replicase polyprotein 1ab, main protease (rep, Severe acute respiratory syndrome coronavirus 2, UniProt P0DTD1)
Effect on: enzyme activity
Mode: inhibitor
Tested at: 20 µM
Notes: primary screen
| SMILES | inhibition [%] |
| --- | --- |
| CCn1c(-c2ccc(Cl)cc2)n[nH]c1=O | 98.2 |
| COc1cc2c(cc1OC(C)C)[C@H](c1ccc(Cl)cc1)N(c1ccc(N(C)C[C@H]3CC[C@H](N4CCN(C)C(=O)C4)CC3)cc1)C(=O)C2 | 26.2 |
| C=C1C(=O)[C@]23[C@H](O)[C@H]1CC[C@@H]2[C@@]12CO[C@]3(O)C[C@@H]1C(C)(C)CC[C@@H]2O | 98.2 |
| CC1=NN(c2ccc(C)c(C)c2)C(=O)/C1=N/Nc1cccc(-c2cccc(C(=O)O)c2)c1O | 27.4 |

Set 2
Target: RNA binding protein fox-1 homolog 2, RRM domain, GST-SBP tag (RBFOX2, Homo sapiens, UniProt O43251-10, residues 100-194)
Technique: RNA Bind-n-Seq
Molecule type: RNA
Medium: in vitro
Tested at: 365 nM
Notes: natural RNA segment, single round, ends assumed
Baseline: no-protein control
Reading: higher = stronger binding
Shared flanks, not repeated: GGGAGUUCUACAGUCCGACGAUC … UGGAAUUCUCGGGUGCCAA
Residues (chain): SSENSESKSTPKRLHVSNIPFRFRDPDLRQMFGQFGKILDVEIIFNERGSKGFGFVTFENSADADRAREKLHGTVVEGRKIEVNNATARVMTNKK
| Strand | RBNS enrichment (R) |
| --- | --- |
| UACAACACCUAAUAUACACUAACAGCAGUAAGACUAAGCCAGGCAGUCUUAAAAAAUUCUAUCAGAUGUGUCAUGAGACUGUUUCAGACUCAUGUCUGCUUAAAAUUCAC | 0.578 |
| CCUCCAGCCUGAGCUCUCAAGAGGUGGUAGAGCUAAGCUCUGGAGGUGGAGUCUUAGGAAGACCCAGGAGUGACUGAGCAGGACAGUAAAGGGAUUCUCCUCAGAACCCA | 0.652 |
| GCCCCUUCCCCAUGAACCCUGCCCUGCUCUGCCCAGGCAAGGAACAGAAGUGAGGAUGAGACCCAGCCCCUUCCCCUGGGAACUCUCCUGGCCUUCUAGGAAUGGAGGAG | 0.644 |
| UAUGUUUUUAGAGCAUGCAAUCUUAACUUUGUUAAACUAUUAUUAUUGAUCACAUUUUGAUUUUUUUCUCUCCACAUCAGGAUAGUUUACUGAAGCACAAUCUCUUAUAC | 7.71 |
| UGGGAAGCAGGCCUUGCCCCUGUCCCACCACUCAUUCUCAGCUUUGAAUGGGAGGCCUUUCUAUAGUGGAGGCCUUUCCUUGAAGCCUAUGAACUGCAGGCCCCCUUUUG | 0.272 |
| GACCCACCCAACGUCUCCAGUUCUUAUUGUUCUCCUUCCUUCCUUCUUUCCUUUCCCUUCUCACCUCUUUGCCUCCUUCCCUAAAAUUCGCUGUGGCCCUCGGGGUCAGA | 1.47 |
| CUCCUCAGCCAGCACCCAGCUUAACCCCUGCCAUCCCAUGCUGGGCCCUCCAGGCCAAGAGUCUCAGCUGGCCGAGAGUCCAGGCCUUGCCUCCCCCGACCGCCAUGGAG | 0.563 |
| CUCUAUUCUCCAUGUCGACUGAGAAGAGUAUAAUAAGAACAUUGUACCCUCUCCACACUUAACCCUCUGGGAUUCUUUAUUAUAAUAUAAACCACCGUCGUGAGGCAUUU | 0.968 |

Set 3
Target: Replicase polyprotein 1ab, polymerase (rep, Severe acute respiratory syndrome coronavirus 2, UniProt P0DTD1)
Effect on: enzyme activity
Mode: inhibitor
Tested at: 20 µM
| SMILES | inhibition |
| --- | --- |
| N[C@@H]1CCN(c2cccnc2)C1 | 5.44% |
| O=C1OC2(c3ccc(O)cc3Oc3cc(O)ccc32)c2ccccc21 | 236% |
| CC(=O)C(=Cc1cc(O)c(O)c([N+](=O)[O-])c1)C(C)=O | 0.76% |
| Cn1c(Nc2ccc(C(F)(F)F)cc2)nc2cc(Oc3ccnc(-c4ncc(C(F)(F)F)[nH]4)c3)ccc21 | -1.44% |
| O=C(CCN1CCN(C(=O)OCc2cc(Cl)cc(Cl)c2)CC1)c1ccc2[nH]c(=O)oc2c1 | -4.25% |
| Cc1oc(-c2ccccc2)nc1CCOc1ccc(CC2SC(=O)NC2=O)c2sccc12 (centres unmarked) | -16.8% |
| C[C@@H]1CC[C@@]2(NC1)O[C@H]1C[C@H]3[C@@H]4CC=C5C[C@@H](O[C@@H]6O[C@H](CO)[C@@H](O[C@@H]7O[C@@H](C)[C@H](O)[C@@H](O)[C@H]7O)[C@H](O)[C@H]6O[C@@H]6O[C@@H](C)[C@H](O)[C@@H](O)[C@H]6O)CC[C@]5(C)[C@H]4CC[C@]3(C)[C@H]1[C@@H]2C | 5.27% |
| CC(=O)[C@@]12O[C@](C)(c3ccccc3)O[C@@H]1C[C@H]1[C@@H]3CCC4=CC(=O)CC[C@]4(C)[C@H]3CC[C@@]12C | 1.16% |
| CC(C)(C)NCC(O)c1ccc(O)cc1Cl (centres unmarked) | -8.53% |
| CCCCN1[C@@H]2CC[C@H]1CC(OC(c1ccc(F)cc1)c1ccc(F)cc1)C2 (some centres unmarked) | 2.49% |
| CCCN1CCO[C@@H]2c3cc(O)ccc3OC[C@H]21 | 8.18% |
| Cc1ccccc1C(=O)Nc1ccc(C(=O)N2CCCC(O)c3cc(Cl)ccc32)c(C)c1 (centres unmarked) | 0.7% |
| CC(=O)[C@H]1CC[C@H]2[C@@H]3CC[C@@H]4C[C@H](O)CC[C@]4(C)[C@H]3CC[C@]12C | -15.3% |
| CC=CC1=C(C(=O)O)N2C(=O)[C@@H](NC(=O)[C@H](N)c3ccc(O)cc3)[C@H]2SC1 | 1.52% |
| COc1cc2nccc(Oc3ccc(NC(=O)C4(C(=O)Nc5ccc(F)cc5)CC4)cc3)c2cc1OC | 7.58% |
| Cn1c(NCCN(CCO)CCCc2ccc([N+](=O)[O-])cc2)cc(=O)n(C)c1=O | -2.17% |
| Cc1cc(Nc2ncnc3ccc(-c4ccc(CNCCS(C)(=O)=O)o4)cc23)ccc1Oc1ccn2ncnc2c1 | 15.8% |
| CCCCOCCOc1nc(-c2ccc(C(=O)O)c(F)c2)sc1C | -0.35% |
| COc1ccc2cc(-c3nc(-c4ccc([S+](C)[O-])cc4)[nH]c3-c3ccncc3)ccc2c1 (centres unmarked) | 0.21% |
| c1coc(CNc2ncnc3[nH]cnc23)c1 | 1.91% |
| O=C(c1c(O)c2ccc(Cl)cc2[nH]c1=O)C1CC1 | 7.35% |
| CS(=O)(=O)CCNCc1nc(-c2ccc3ncnc(Nc4ccc(OCc5cccc(F)c5)c(Cl)c4)c3c2)cs1 | 13.3% |
| C[C@@]12C(=O)OC(=O)[C@]1(C)[C@H]1CC[C@@H]2O1 | 1.58% |
| CCCNC(=O)NS(=O)(=O)c1ccc(Cl)cc1 | -0.46% |
| NS(=O)(=O)c1cc2c(cc1Cl)N=C(CSCc1ccccc1)NS2(=O)=O | 1.72% |

Set 4
Target: Interferon regulatory factor 3, full length, phosphomimetic (IRF3, Homo sapiens, UniProt Q14653, residues 1-427, S386D/S396D/S398D/S402D/T404D/S405D)
Technique: protein-binding microarray
Molecule type: double-stranded DNA, one strand shown
Medium: in vitro
Tested at: 2540 nM top
Notes: 60-bp whole probe
Added: salmon DNA 0.4 mg/ml
Baseline: random background probes
Reading: higher = stronger binding
Shared flanks, not repeated: GCCTAGCAC … GTCTTGATTCGCTTGACGCTGCTG
Residues (chain): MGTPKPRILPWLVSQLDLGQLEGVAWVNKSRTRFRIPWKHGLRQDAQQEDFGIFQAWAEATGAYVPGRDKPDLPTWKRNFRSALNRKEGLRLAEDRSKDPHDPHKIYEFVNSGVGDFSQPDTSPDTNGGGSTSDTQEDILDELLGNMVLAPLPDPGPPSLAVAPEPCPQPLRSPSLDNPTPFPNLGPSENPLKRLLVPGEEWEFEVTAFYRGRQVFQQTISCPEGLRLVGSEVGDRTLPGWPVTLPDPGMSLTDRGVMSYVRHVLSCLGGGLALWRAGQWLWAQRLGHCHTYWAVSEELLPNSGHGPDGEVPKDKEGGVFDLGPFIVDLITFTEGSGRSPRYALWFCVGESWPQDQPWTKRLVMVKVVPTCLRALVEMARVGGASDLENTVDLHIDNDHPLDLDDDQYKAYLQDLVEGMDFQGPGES
| Strand | fitted relative affinity [z-score] |
| --- | --- |
| TCACATTGCTGCCCTCAGACTGTGCTA | 0.03 |
| GACGGTTTCGGGACTGGGGTCGTGCTA | 4.63 |
| GATTTTTTAGCTTGCAAAAAGTGCTAG | 0.357 |
| GACGGTCTCGGTATCGCGACGTGCTAG | 1.1 |
| TTAGGTTTCGGGTTTCGGTAAGTGCTA | 5.98 |
| TTAGATTTGAGACTGGATTAGTGCTAG | -0.233 |
| TTAGGTATCGGGTATCGTTTAGTGCTA | 1.61 |
| TCAAGTTTTCCTATGTCACTGTGCTAG | 1.61 |

Set 5
Target: Sal-like protein 4, full length isoform A (SALL4, Homo sapiens, UniProt Q9UJQ4, residues 1-1053)
UniProt Q9UJQ4, sequence (whole entry, looked up): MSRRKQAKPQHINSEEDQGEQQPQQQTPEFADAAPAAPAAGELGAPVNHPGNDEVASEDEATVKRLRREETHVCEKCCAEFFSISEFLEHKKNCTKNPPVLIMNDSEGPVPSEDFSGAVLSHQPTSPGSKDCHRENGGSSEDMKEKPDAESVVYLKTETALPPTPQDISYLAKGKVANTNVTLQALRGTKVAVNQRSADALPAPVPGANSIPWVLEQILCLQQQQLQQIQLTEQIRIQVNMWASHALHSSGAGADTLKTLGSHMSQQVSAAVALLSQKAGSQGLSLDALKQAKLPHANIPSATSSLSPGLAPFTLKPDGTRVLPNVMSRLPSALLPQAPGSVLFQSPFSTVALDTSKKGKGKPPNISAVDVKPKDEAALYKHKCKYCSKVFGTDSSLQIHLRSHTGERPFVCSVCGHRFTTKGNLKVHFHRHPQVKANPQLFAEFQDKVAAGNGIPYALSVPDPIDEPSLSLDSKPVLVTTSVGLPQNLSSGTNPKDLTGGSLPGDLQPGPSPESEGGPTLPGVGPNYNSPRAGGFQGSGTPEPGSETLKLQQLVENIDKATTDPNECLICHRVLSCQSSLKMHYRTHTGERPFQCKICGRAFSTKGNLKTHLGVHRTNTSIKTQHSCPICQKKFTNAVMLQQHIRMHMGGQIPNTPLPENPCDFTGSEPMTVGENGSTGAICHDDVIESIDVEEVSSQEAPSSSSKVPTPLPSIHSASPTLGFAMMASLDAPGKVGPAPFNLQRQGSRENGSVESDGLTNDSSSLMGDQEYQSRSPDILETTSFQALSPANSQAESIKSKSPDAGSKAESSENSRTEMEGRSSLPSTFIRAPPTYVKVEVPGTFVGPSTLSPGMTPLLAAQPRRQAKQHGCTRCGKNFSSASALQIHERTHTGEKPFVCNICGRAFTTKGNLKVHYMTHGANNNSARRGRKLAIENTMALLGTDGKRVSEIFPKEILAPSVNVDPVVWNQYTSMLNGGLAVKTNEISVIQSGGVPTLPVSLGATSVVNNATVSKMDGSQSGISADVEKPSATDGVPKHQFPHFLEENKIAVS
Technique: universal PBM
Molecule type: double-stranded DNA, one strand shown
Medium: in vitro
Tested at: 600 nM
Notes: 8-mer, flanks averaged, mean of replicates
Reading: higher = stronger binding
| Strand | E-score |
| --- | --- |
| CTTGGCCC | -0.356 |
| CCCCCTAA | -0.0895 |
| GATCCGGC | -0.215 |
| GGTGATAA | 0.164 |
| CCATTAAG | 0.0784 |
| ATCAACCA | 0.069 |
| ACCAATTC | 0.0154 |
| AATCTGGG | -0.0973 |

For quick reference, copied from above (set 3):
| SMILES | inhibition |
| --- | --- |
| Cc1cc(Nc2ncnc3ccc(-c4ccc(CNCCS(C)(=O)=O)o4)cc23)ccc1Oc1ccn2ncnc2c1 | 15.8% |
| CCCCOCCOc1nc(-c2ccc(C(=O)O)c(F)c2)sc1C | -0.35% |
| COc1ccc2cc(-c3nc(-c4ccc([S+](C)[O-])cc4)[nH]c3-c3ccncc3)ccc2c1 (centres unmarked) | 0.21% |
| c1coc(CNc2ncnc3[nH]cnc23)c1 | 1.91% |
| O=C(c1c(O)c2ccc(Cl)cc2[nH]c1=O)C1CC1 | 7.35% |
| CS(=O)(=O)CCNCc1nc(-c2ccc3ncnc(Nc4ccc(OCc5cccc(F)c5)c(Cl)c4)c3c2)cs1 | 13.3% |
| C[C@@]12C(=O)OC(=O)[C@]1(C)[C@H]1CC[C@@H]2O1 | 1.58% |
| CCCNC(=O)NS(=O)(=O)c1ccc(Cl)cc1 | -0.46% |
